Experimental data pooled from the literature.
Values joined by “and” are separate records of one study, mostly repeats; a detail may differ. ± marks the error that the study gave.
Sequence of UniProt P42336 (whole entry, unmodified, looked up): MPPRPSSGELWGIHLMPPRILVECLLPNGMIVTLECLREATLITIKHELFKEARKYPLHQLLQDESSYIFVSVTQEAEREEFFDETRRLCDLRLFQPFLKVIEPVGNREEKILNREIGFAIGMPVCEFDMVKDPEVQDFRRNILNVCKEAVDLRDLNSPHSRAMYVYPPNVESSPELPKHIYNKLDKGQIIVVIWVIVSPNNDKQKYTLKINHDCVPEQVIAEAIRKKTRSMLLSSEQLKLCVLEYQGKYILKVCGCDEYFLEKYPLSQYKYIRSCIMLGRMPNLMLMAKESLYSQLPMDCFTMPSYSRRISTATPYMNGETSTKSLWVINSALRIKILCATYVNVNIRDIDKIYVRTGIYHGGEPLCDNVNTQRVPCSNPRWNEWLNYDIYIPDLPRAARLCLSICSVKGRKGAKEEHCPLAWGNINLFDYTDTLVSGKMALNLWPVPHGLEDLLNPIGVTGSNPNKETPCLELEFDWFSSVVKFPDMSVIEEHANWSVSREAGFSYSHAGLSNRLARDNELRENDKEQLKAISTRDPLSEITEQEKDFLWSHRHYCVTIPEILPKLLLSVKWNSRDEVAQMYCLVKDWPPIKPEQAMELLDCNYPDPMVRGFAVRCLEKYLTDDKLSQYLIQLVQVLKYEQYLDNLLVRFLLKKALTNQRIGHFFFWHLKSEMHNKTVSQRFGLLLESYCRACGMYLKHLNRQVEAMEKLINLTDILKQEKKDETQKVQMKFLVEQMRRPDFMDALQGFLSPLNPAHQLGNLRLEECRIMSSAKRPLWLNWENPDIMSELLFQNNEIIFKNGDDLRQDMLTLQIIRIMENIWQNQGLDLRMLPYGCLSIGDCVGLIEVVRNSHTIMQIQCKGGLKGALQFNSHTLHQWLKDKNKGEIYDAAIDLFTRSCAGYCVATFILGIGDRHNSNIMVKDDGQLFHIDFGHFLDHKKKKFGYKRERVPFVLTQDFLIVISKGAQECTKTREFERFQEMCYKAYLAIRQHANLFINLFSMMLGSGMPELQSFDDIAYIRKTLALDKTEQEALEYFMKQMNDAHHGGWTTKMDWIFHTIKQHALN
Sequence of UniProt Q96S38 (whole entry, looked up): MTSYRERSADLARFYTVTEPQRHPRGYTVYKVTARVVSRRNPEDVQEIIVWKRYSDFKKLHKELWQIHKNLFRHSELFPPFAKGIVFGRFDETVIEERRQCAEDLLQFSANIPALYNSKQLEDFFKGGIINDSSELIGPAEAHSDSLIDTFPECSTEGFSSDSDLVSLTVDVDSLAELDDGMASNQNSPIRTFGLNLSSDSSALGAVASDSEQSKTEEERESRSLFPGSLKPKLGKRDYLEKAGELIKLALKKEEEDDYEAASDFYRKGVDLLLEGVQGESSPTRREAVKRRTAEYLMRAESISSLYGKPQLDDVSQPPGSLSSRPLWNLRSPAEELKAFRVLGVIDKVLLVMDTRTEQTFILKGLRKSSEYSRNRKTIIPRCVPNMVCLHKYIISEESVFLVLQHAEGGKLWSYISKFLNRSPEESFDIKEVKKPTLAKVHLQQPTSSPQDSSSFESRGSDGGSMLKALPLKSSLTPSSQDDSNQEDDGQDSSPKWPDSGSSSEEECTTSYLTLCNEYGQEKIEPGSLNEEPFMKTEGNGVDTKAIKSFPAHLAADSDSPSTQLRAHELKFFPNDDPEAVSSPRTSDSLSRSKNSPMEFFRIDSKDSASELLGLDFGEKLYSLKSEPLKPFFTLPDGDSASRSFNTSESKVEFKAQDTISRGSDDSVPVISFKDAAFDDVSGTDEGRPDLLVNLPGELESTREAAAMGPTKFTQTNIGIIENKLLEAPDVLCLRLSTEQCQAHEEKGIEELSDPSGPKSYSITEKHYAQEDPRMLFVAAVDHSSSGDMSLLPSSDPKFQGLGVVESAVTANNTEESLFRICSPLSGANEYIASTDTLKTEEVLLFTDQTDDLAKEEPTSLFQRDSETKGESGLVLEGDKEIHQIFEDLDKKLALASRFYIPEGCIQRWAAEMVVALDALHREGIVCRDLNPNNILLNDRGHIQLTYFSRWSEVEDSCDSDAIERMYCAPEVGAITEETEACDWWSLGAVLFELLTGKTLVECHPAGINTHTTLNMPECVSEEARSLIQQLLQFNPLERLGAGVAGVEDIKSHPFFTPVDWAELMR

CCc1nn(C)c2nc(-c3ccc(C(=O)O)cc3)nc(NCc3ccccc3)c12 gave an inhibition of -11.6% and -2.34% (Cryptosporidium parvum; parasite growth, immunofluorescence imaging; HCT-8, Iowa; 222 nM).
O=C(O)C(Cl)Cl.OCCN(CCO)CCO has an inhibition of -47% (Amaranthus retroflexus; herbicidal activity; 15 mg/mL, 21 days, post-emergence greenhouse).
For CC(C)(C)C(=O)OCOP(=O)(OCOC(=O)C(C)(C)C)C1CCCN(O)C1=O (stereo not drawn), the CC50 was 93.9 µM (HCC 2998).
CN(C)[C@H]1C[C@@]23CC[C@@]4(O2)C(=CC[C@]2(C)[C@@H](c5ccc6ccncc6c5)CC[C@H]24)C=C3[C@@H](O)[C@@H]1O has an inhibition of -0.1% (RPS6KC1 (Homo sapiens, UniProt Q96S38); ATP probe labelling, inhibitor, KiNativ profiling; 1 µM).
CC(C)CC(C(=O)N1CC2(CC1C#N)C(=O)Nc1ccccc12)N(C)C(=O)c1cc2c(F)cc(F)c(F)c2[nH]1 (stereo not drawn) gave an inhibition of 90.3% (Human coronavirus 229E; cytopathic effect; MRC5; 10 µM).
CC[C@H](C)[C@H](NC(=O)[C@H](CO)NC(=O)[C@H](Cc1ccc(O)cc1)NC(=O)[C@H](Cc1ccc(O)cc1)NC(=O)[C@H](CC(N)=O)NC(=O)CNC(=O)[C@H](CO)NC(=O)[C@H](Cc1ccc(O)cc1)NC(=O)[C@H](CO)NC(=O)[C@H](CO)NC(=O)[C@H](CC(N)=O)NC(=O)COCCOCCNC(=O)CN1CCN(CC(=O)O)CCN(CC(=O)O)CCN(CC(=O)O)CC1)C(=O)N[C@@H](CC(C)C)C(N)=O [copper-64 labelled] gave a tissue uptake of 15.5 %ID/mL (dynamic PET; KPC mouse Ptf1a-CreER tdTomato, metastases; intravenous, dose not given, 3.5 min, 84 d after tamoxifen).
For O=C1NC2(CC2)COc2ncc(F)cc2[C@H]2COCCN2c2ccn3ncc1c3n2, “serum LDH activity” read 723 ± 278 U/L (Sprague-Dawley rat, female, serum; oral, 2.5 mg/kg/day, end of treatment, 4-week subacute toxicity).
COc1ccccc1-c1n[nH]c2nc(NC3CCN(C(=O)Cc4ccc(F)cc4F)CC3)ncc12 gave a relative abundance of 1.15 (bead binding, competition bead pull-down, measured: LINJ.35.5300; Leishmania donovani extract; 10 µM; baseline: vehicle).
The survival of Cc1cc(C(=O)Nc2nc3cccc(C)c3n2[C@H]2CCCCN(C(=O)/C=C/CN(C)C)C2)ccn1 is reported as 112% and 108% and 101% and 114% and 103% and 68.4% (Trypanosoma brucei brucei; 2T1 CLK1 C215S overexpressing; 0.01029 µM, 72 h).
For Cc1cc(Oc2nc(N3CC[C@@H](c4ccncc4)C3)ncc2F)[nH]n1, the normalised growth was 83% and 86% and 84% (Mycobacterium tuberculosis; OD; H37Rv PurF CRISPRi knockdown; 0.001953 µM, together with: anhydrotetracycline low).
With CS(C)(=O)=Nc1ccc(-c2ccc(-c3nc4cc(O[C@@H]5CO[C@H]6[C@@H]5OC[C@H]6O)[nH]c4cc3F)cc2)cc1 the inhibition was -1% (Phosphatidylinositol 4,5-bisphosphate 3-kinase catalytic subunit alpha isoform, with p85 alpha (PIK3CA, Homo sapiens, UniProt P42336, H1047R); kinase activity; 10 µM).
O=C(O)c1ccc(-c2nc(-c3ccccc3Cl)c3sccn23)cc1: “platelet count change” 100% (C57BL/6 mouse; dose not given, day -3, no 5-FU, basal haematopoiesis; baseline: baseline).
